# Experimental data of several laboratories.
# Each line is one published result; not all experiments were run side by side.
SMILES,organism,assay,test system,setting,MIC
CC[C@H](C)[C@H](NC(=O)[C@@H]1CC(=O)N[C@@H](CO)C(=O)N[C@@H](CC(C)C)C(=O)NCC(=O)N[C@@H](CO)C(=O)N[C@@H](CO)C(=O)N2CCC[C@H]2C(=O)N[C@@H](Cc2ccc(O)cc2)C(=O)N[C@@H](CC(N)=O)C(=O)N1)C(=O)N[C@@H](CC(C)C)C(=O)NCC(=O)N[C@@H](Cc1ccc(O)cc1)C(=O)N1CCC[C@H]1C(=O)N[C@@H](C)C(=O)N[C@@H](CC(C)C)C(=O)N[C@H](C(=O)N[C@H](C(=O)N[C@H](C(=O)N[C@@H](Cc1ccc(O)cc1)C(=O)N1CCC[C@H]1C(=O)O)[C@@H](C)CC)C(C)C)[C@@H](C)CC,Talaromyces stipitatus,,,,> 128 µg/mL
CC1C(=NNC(=O)c2ccncc2)C(C)C(c2ccc(Br)cc2)OC1c1ccc(Br)cc1 (centres unmarked),Aspergillus niger,microbial growth,,,50 µg/mL
CC[C@H](C)[C@H](NC(=O)[C@H](CC(C)C)NC(=O)[C@H](CC(=O)O)NC(=O)[C@H](CO)NC(=O)[C@H](CCCNC(=N)N)NC(=O)[C@@H](N)CO)C(=O)N[C@H](C(=O)N[C@@H](Cc1c[nH]cn1)C(=O)N[C@@H](CCC(N)=O)C(=O)N[C@@H](CCCNC(=N)N)C(=O)N[C@@H](CC(C)C)C(=O)N[C@@H](Cc1ccccc1)C(N)=O)C(C)C,Candida parapsilosis,broth microdilution,RPMI MOPS-buffered,,> 400 µg/mL
c1ccc(CCNC2CCCc3c2[nH]c2ccc(C4CCCCC4)cc32)cc1 (centres unmarked),Staphylococcus aureus,broth microdilution,"HG001 daptomycin-resistant, cation-adjusted Mueller-Hinton broth",,4 µg/mL
[O-][N+]1=C(c2ccsc2)C2=NCCCN2c2ccccc21,Porphyromonas asaccharolytica,,,,0.125 µg/mL
COC1C=COC2(C)Oc3c(C)c(O)c4c(c3C2=O)C2=NC3(CCN(CC(C)C)CC3)NC2=C(NC(=O)C(C)=CC=CC(C)C(O)C(C)C(O)C(C)C(OC(=O)c2cccnc2)C1C)C4=O (centres unmarked),Mycobacteroides abscessus,,ATCC 19977 arr knockout,,0.026 µM
[O-][N+]1=C(c2ccc(Cl)cc2)C2=NCCCN2c2ccccc21,Porphyromonas gingivalis,microbial growth,ATCC33277,,0.125 µg/mL
S=C(NCc1ccccn1)NCc1ccccn1,Agrobacterium tumefaciens,,,,4.04 µg/mL
CCCCc1ccc(-c2nc(C)c(C(C)=NNC(=N)N)s2)cc1,Staphylococcus aureus,,VRS5 VRSA,,0.7 µg/mL
CC[C@H](C)[C@@H]1NC(=O)[C@H](CC(C)C)NC(=O)[C@@H](NC(=O)[C@H](CO)NC(=O)[C@H](CCCNC(=N)N)NC(=O)[C@@H](N)CO)CSSC[C@@H](C(=O)N[C@@H](CCC(N)=O)C(=O)N[C@@H](CCCNC(=N)N)C(=O)N[C@@H](CC(C)C)C(=O)N[C@@H](Cc2ccccc2)C(N)=O)NC(=O)[C@H](C(C)C)NC1=O,Candida parapsilosis,broth microdilution,ATCC 22019,,14 µg/mL
COc1ccc(C2=[N+]([O-])c3ccccc3N3CCN=C23)cc1,Bacteroides fragilis,microbial growth,ATCC25285,,≤ 0.06 µg/mL
CCCCCCCCCCCCCCCCSCC1OC(OC2C(N)CC(N)C(OC3OC(CN)C(O)CC3N)C2O)C(O)C(N)C1O (centres unmarked),Enterococcus,,vancomycin-resistant,,18.8 µg/mL
CC[C@H](C)[C@H](NC(=O)[C@H](CCCCN)NC(=O)[C@H](CCCNC(=N)N)NC(=O)[C@H](Cc1c[nH]c2ccccc12)NC(=O)[C@@H](NC(=O)[C@H](CC(N)=O)NC(=O)[C@H](CCCNC(=N)N)NC(=O)[C@@H](NC(=O)[C@H](CCCNC(=N)N)NC(=O)[C@H](CC(N)=O)NC(=O)[C@H](CCCNC(=N)N)NC(=O)[C@H](CC(C)C)NC(=O)[C@H](CCCNC(=N)N)NC(=O)[C@H](CCCNC(=N)N)NC(=O)[C@H](Cc1ccccc1)NC(=O)[C@H](CCCNC(=N)N)NC(=O)CN)[C@@H](C)CC)[C@@H](C)CC)C(=O)NCC(=O)N1CCC[C@H]1C(=O)N[C@H](C(=O)N[C@@H](C)C(=O)NCC(=O)N1CCC[C@H]1C(=O)N[C@@H](CC(C)C)C(=O)N[C@H](C(=O)N[C@@H](CO)C(=O)N[C@@H](CCCNC(=N)N)C(=O)N[C@@H](Cc1ccccc1)C(=O)NCC(=O)O)[C@@H](C)CC)[C@@H](C)CC,gram-negative bacteria,agar dilution,clinical isolates,summary range,8 to 32 µg/mL
COc1ccc(C2=[N+]([O-])c3ccccc3N3CC(C)(C)CN=C23)cc1,Porphyromonas asaccharolytica,,,,0.25 µg/mL
CC[C@H](C)[C@H](NC(=O)[C@H](Cc1c[nH]c2ccccc12)NC(=O)[C@H](CCCNC(=N)N)NC(=O)[C@H](CCC(N)=O)NC(=O)[C@@H](NC(=O)[C@H](Cc1c[nH]c2ccccc12)NC(=O)[C@H](CCCNC(=N)N)NC(=O)[C@H](CCCNC(=N)N)NC(=O)[C@H](C)NC(=O)[C@H](C)NC(=O)[C@H](C)NC(=O)[C@@H](NC(=O)[C@H](CCCCN)NC(=O)[C@@H]1CCCN1C(=O)[C@H](CCCNC(=N)N)NC(=O)[C@H](Cc1c[nH]c2ccccc12)NC(=O)[C@H](CCCNC(=N)N)NC(=O)[C@H](CCCNC(=N)N)NC(=O)[C@@H](NC(=O)[C@H](Cc1c[nH]c2ccccc12)NC(=O)[C@H](CCCNC(=N)N)NC(=O)[C@H](CCC(N)=O)NC(=O)[C@@H](NC(=O)[C@H](Cc1c[nH]c2ccccc12)NC(=O)[C@H](CCCNC(=N)N)NC(=O)[C@@H](N)CCCNC(=N)N)C(C)C)[C@@H](C)CC)C(C)C)C(C)C)C(=O)N[C@@H](CCCNC(=N)N)C(=O)N[C@@H](CCCNC(=N)N)C(=O)N[C@@H](Cc1c[nH]c2ccccc12)C(=O)N[C@@H](CCCNC(=N)N)C(=O)N1CCC[C@H]1C(=O)N[C@@H](CCCCN)C(=O)N[C@H](C(N)=O)C(C)C,Aspergillus fumigatus,"metabolic activity, resazurin",azole-resistant,"27 h, 37 °C",1 µM
O=[N+]([O-])c1ccc(C2=[N+]([O-])c3ccccc3N3CCCN=C23)cc1,Bacteroides fragilis,microbial growth,ATCC25285,,≤ 0.06 µg/mL
CC[C@H](C)[C@H](NC(=O)CNC(=O)[C@H](CCCCN)NC(=O)[C@H](C)NC(=O)[C@H](CCC(=O)O)NC(=O)[C@H](Cc1ccccc1)NC(=O)[C@H](CO)NC(=O)[C@H](CC(C)C)NC(=O)[C@@H](NC(=O)[C@H](CC(=O)O)NC(=O)[C@H](C)NC(=O)[C@@H](NC(=O)[C@@H](N)C(C)C)[C@@H](C)O)C(C)C)C(=O)N[C@@H](C)C(=O)N[C@H](C(=O)N[C@@H](CC(N)=O)C(=O)N[C@@H](Cc1c[nH]cn1)C(=O)N[C@@H](CO)C(=O)N[C@@H](C)C(=O)N[C@H]1CSSC[C@@H]2NC(=O)[C@H](C(C)C)NC(=O)CNC(=O)[C@H](CC(N)=O)NC(=O)[C@H](CCC(N)=O)NC(=O)[C@H](C)NC(=O)[C@H](CO)NC(=O)CNC(=O)CNC(=O)[C@H](CCCCN)NC(=O)[C@H](CCCCN)NC(=O)[C@H](CCCNC(=N)N)NC(=O)[C@H](CC(C)C)NC(=O)[C@H](C)NC(=O)[C@H]([C@@H](C)CC)NC(=O)[C@H](CSSC[C@@H](C(=O)N[C@@H](CCCNC(=N)N)C(=O)N[C@@H](CC(N)=O)C(=O)O)NC(=O)[C@H](C(C)C)NC2=O)NC(=O)[C@H](Cc2c[nH]cn2)NC(=O)[C@H](CC(C)C)NC(=O)[C@H](C)NC1=O)C(C)C,Candida parapsilosis,broth microdilution,ATCC 22019,28 °C,12.5 µM

# For quick reference, copied from above:
SMILES,organism,assay,test system,setting,MIC
COC1C=COC2(C)Oc3c(C)c(O)c4c(c3C2=O)C2=NC3(CCN(CC(C)C)CC3)NC2=C(NC(=O)C(C)=CC=CC(C)C(O)C(C)C(O)C(C)C(OC(=O)c2cccnc2)C1C)C4=O (centres unmarked),Mycobacteroides abscessus,,ATCC 19977 arr knockout,,0.026 µM
CCCCc1ccc(-c2nc(C)c(C(C)=NNC(=N)N)s2)cc1,Staphylococcus aureus,,VRS5 VRSA,,0.7 µg/mL
